Assay results from different studies.
Protocols differ between the studies behind these lines.
RET V804M: Proto-oncogene tyrosine-protein kinase receptor Ret (RET, Homo sapiens, UniProt P07949, V804M)
RET V804L: Proto-oncogene tyrosine-protein kinase receptor Ret (RET, Homo sapiens, UniProt P07949, V804L)
RET: Proto-oncogene tyrosine-protein kinase receptor Ret (RET, Homo sapiens, UniProt P07949)
RET M918T: Proto-oncogene tyrosine-protein kinase receptor Ret (RET, Homo sapiens, UniProt P07949, M918T)

| Compound | target | assay | conditions | scale | remaining binding [%] |
| --- | --- | --- | --- | --- | --- |
| C=CC(=O)N1CCCC(n2c(=O)c3ncccc3n(Cc3ccc(Oc4ccccc4)cc3)c2=O)C1 (stereo not drawn) | RET V804M | cell-free assay, competition with immobilised ligand | 1 µM | – | 96 |
| COc1c(Cl)cccc1Nc1c(-c2ccncc2C#C[C@@]2(C)CCCN2C(=O)/C=C/CN(C)C)[nH]c2c1C(=O)NCC2 | RET V804M | binding, competition with immobilised ligand | 3 µM | – | 93 |
| CCN1CCN(Cc2ccc(C(=O)Nc3ccc(C)c(NCc4cnc5[nH]ccc5c4OC)c3)cc2C(F)(F)F)CC1 | RET V804L | binding, competition with immobilised ligand | 1 µM | – | 11 |
| CC(C)=CC1OC(C)(C)C2C=C3C(=O)C(Cl)=CC(O)C3C3C(O)C4OC4C(=O)C132 (stereo not drawn) | RET V804M | cell-free assay, competition with immobilised ligand | 10 µM | – | 96 |
| CC(=O)N1c2ccc(-c3ccc(CNC(=O)c4cn5cc(-c6cnc(N)nc6)nc(N6CCOCC6)c5n4)cc3)cc2CC[C@@H]1C | RET | KINOMEscan | 10 µM | – | 60 |
| Nc1ncc2c(n1)-c1c([nH]c3ccc(C4=CCOCC4)cc13)CCC2 | RET V804M | binding, competition with immobilised ligand | 1 µM | – | 68 |
| C=CC(=O)N1CCc2ccc(-n3c(=O)ccc4cnc5ccc(-c6cnn(C)c6)cc5c43)cc21 | RET | KINOMEscan | 1 µM | relative to: DMSO control | 100 |
| CCN1CCN(Cc2ccc(NC(=O)c3ccc(C)c(NC(=O)c4cncc(-c5cccs5)c4)c3)cc2C(F)(F)F)CC1 | RET | binding, competition with immobilised ligand | 1 µM | – | 0.1 |
| Cc1c[nH]c2nccc(-c3ccc(C(=O)N[C@@H]4c5c(F)cc(C(F)F)cc5C[C@@H]4O)cn3)c12 | RET | binding, competition with immobilised ligand | 3 µM | – | 29 |
| CNC1C[S+]2CC[S+]3CC[S+](C1)[Ru-4]321([N]=C=S)[n]2c3ccc(OC)cc3c3c4c(c5cc(F)c[n+]1c5c32)C(=O)NC4=O (stereo not drawn) | RET | KinomeScan | 0.1 µM | relative to: untreated | 90 |
| Cc1cnc2nc1Nc1cccc(c1)COC/C=C/COCc1cc(ccc1OCCN1CCOCC1)N2 | RET V804L | binding | 0.1 µM | – | 5.2 |
| CNC(=O)C1CCN(c2cc(C)c(F)cc2NC(=O)c2ccc(-c3cc(O)ccc3C)c(C)c2)CC1 | RET V804L | binding, competition with immobilised ligand | 1 µM | – | 97 |
| Cc1ccc(-c2c(/C=C(\C#N)C(=O)NC(C)C)n(CCCO)c3ncnc(N)c23)cc1 | RET M918T | cell-free assay, competition with immobilised ligand | 1 µM | – | 56 |
| Cc1cc(NC(=O)[C@H](O)c2cc(F)cc(F)c2)ccc1-c1cnc(N)c(C(=O)NC(C)C)c1 | RET M918T | binding, competition with immobilised ligand | 0.1 µM | – | 73 |
| CN1CCN(Cc2ccc(NC(=O)c3cccc(C#Cc4cnc(N)c5ncccc45)c3)cc2C(F)(F)F)CC1 | RET | cell-free assay, competition with immobilised ligand | 0.5 µM | – | 0 |
